Measured values of several laboratories.
Parts stem from different laboratories: compare values within a part only. Several values in a cell are separate wells, animals, samples, runs or records.

Set 1
Target: RNA binding protein fox-1 homolog 2, RRM domain, GST-SBP tag (RBFOX2, Homo sapiens, UniProt O43251-10, residues 100-194)
Method: RNA Bind-n-Seq
Form: RNA
Matrix: in vitro
Tested at: 365 nM
Setting: natural RNA segment, single round, ends assumed
Reference: no-protein control
Reading: higher = stronger binding
All sequences stand within: GGGAGUUCUACAGUCCGACGAUC … UGGAAUUCUCGGGUGCCAA
Residues (chain): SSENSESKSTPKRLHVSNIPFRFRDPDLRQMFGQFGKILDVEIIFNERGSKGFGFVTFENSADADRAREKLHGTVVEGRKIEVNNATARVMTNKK
| Sequence | RBNS enrichment (R) |
| --- | --- |
| ACAGUAAAUUUGGGAUGUAUGUAAGGAGAGAGAGAAAUACCCUGUUAGUACCUCUAGAAAUCAUGUGUCCUAGGAAUGGCAAGGAUGGAAAGAAAGUUGAAGACUGUUCU | 1.12 |
| UAAAUGGAUGUAUUGUACAGAGAACACGAACGUCUCUUCCUUAUUUUACGUCUUCAGCACCCUUGAUUAAAAUGGUGUCGUUUACUUAUGUGCACCAAUUGUCAAAACCA | 0.752 |
| CAGCUGCCCAAUAUUAACAGUUUUAGUUGGUCUCUAUCUCAAAUAACAGUGUAGGUAUUGGAACCCUUGUAGCCCUUUUGGGGGUCAAACAGGUAUAUGGAUUUAUCAAG | 0.223 |
| GGGUGGCCAUGGGCCAAAGGAAAAAGCACUGUCCUAUCUCAAGGUCCACUGUGGAAAUGUCCACCUUGCCCACCUCCAAGGGGCAACGGAUAGACAGAUCAAAUGGUGGC | 0.241 |
| AGAAUUAGUGAUAAUAAAAAGCAGAGUGAUUUUGGUCAAUUUUAUUAUUAAUUCUUAAAUUCCCUGCAGAGAAUGCCCCCUUUAUUGCUGCACCAGGGUUGGCAUUGCUC | 1.56 |

Set 2
Target: Interferon regulatory factor 5, full length, phosphomimetic (IRF5, Homo sapiens, UniProt Q13568-2, residues 1-514, S451D/S453D/S456D/S462D)
Method: protein-binding microarray
Form: double-stranded DNA, one strand shown
Matrix: in vitro
Tested at: 940 nM top
Setting: 60-bp whole probe
Together with: salmon DNA 0.4 mg/ml
Reference: random background probes
Reading: higher = stronger binding
All sequences stand within: GCCTAGCACT … GTGCTAGGTCTTGATTCGCTTGACGCTGCTG
| Sequence | fitted relative affinity [z-score] |
| --- | --- |
| TGTTTTTTTCTATATGCAA | 1.59 |
| TAGGTTTCGGTGTCGGTTA | 13.6 |
| TAGGTTTCCTTATCTTTTA | 1.71 |
| TTGCTTTCCTTTATGTACT | 1.11 |
| CACATTGCTTTCTCTTACT | 2.22 |

Set 3
Target: Histone acetyltransferase KAT6A, both winged helices, GST fusion (KAT6A, Homo sapiens, UniProt Q92794, residues 1-181)
Method: protein binding microarray
Form: double-stranded DNA, one strand shown
Matrix: in vitro
Tested at: not given
Setting: 8-mer, flanks averaged, mean of 2 arrays, mostly near background
Reference: not given
Reading: higher = stronger binding
Target sequence (chain): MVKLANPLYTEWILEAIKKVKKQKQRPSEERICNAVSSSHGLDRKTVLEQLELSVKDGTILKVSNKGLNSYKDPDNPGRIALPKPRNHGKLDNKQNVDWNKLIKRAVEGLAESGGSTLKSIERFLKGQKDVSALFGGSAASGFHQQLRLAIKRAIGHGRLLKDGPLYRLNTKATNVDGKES
| Sequence | E-score |
| --- | --- |
| GCAGGCTA | -0.0962 |
| AACGGAGT | 0.213 |
| CGCCTCCG | 0.2 |
| CTCGAGAC | -0.013 |
| AATCACAG | -0.107 |
| GTATCATA | 0.0353 |

Further values, each from its own experiment
| Molecule | target | test | system | setting | scale | quantity | value |
| --- | --- | --- | --- | --- | --- | --- | --- |
| PhoQ, residues 284 288 289 292 302 303 SLANIV | PhoP, residues 12 14 15 18 19 LWHCS (Escherichia coli, UniProt P23836) | Sort-seq, measured: YFP reporter | E. coli | PhoQ-PhoP variant library, together with: 10 µM Mg2+ | reference: high Mg2+ state, higher = stronger signaling | fold induction | 5.54 and 13.4 |

Repeated from above (set 1):
| Sequence | RBNS enrichment (R) |
| --- | --- |
| AGAAUUAGUGAUAAUAAAAAGCAGAGUGAUUUUGGUCAAUUUUAUUAUUAAUUCUUAAAUUCCCUGCAGAGAAUGCCCCCUUUAUUGCUGCACCAGGGUUGGCAUUGCUC | 1.56 |
